# Measurements gathered from unrelated publications.
# Each line is one published result; not all experiments were run side by side.
# Target: Serine/threonine-protein kinase 38 (STK38, Homo sapiens, UniProt Q15208)
assay,test system,conditions,how to read,measurement,value,SMILES
KinomeScan,,0.1 µM,relative to: untreated,remaining binding,100%,CNC1C[S+]2CC[S+]3CC[S+](C1)[Ru-4]321([N]=C=S)[n]2c3ccc(OC)cc3c3c4c(c5cc(F)c[n+]1c5c32)C(=O)NC4=O (stereo not shown)
"target engagement, NanoBRET",human cells,,,Hill slope,0.762,Cc1ccc(C(=O)Nc2ccc(CN3CCN(C)CC3)c(C(F)(F)F)c2)cc1C#Cc1cnc2cccnn12
enzyme activity,,1 µM,relative to: DMSO control,remaining activity,90.7%,Nc1ncc(-c2cc(-c3cnn(CC(F)(F)F)c3)ncc2F)nc1C(=O)NC1CNCC(F)C1 (stereo not shown)
"cell-free assay, inhibitor",,1 µM,,inhibition,0%,C=CC(=O)N1Cc2nc(-c3cc(-c4cc(Cl)cnc4Cl)c(F)cc3F)n(-c3ccncn3)c2C1
"cell-free assay, competition with immobilised ligand",,10 µM,,remaining binding,67%,CC(C)=CC1OC(C)(C)C2C=C3C(=O)C(Cl)=CC(O)C3C3C(O)C4OC4C(=O)C132 (stereo not shown)
"cell-free assay, competition with immobilised ligand",,1 µM,,remaining binding,100%,Cc1ccc(-c2c(/C=C(\C#N)C(=O)NC(C)C)n(CCCO)c3ncnc(N)c23)cc1
kinase activity,,"0.1 µM, together with: ATP at Km",,inhibition,3.6%,CCn1cc(C(=O)O)c(=O)c2c(N)c(F)c(NC3CCCCC3)cc21
"enzyme activity, inhibitor",,10 µM,,inhibition,-3%,NC(=O)C[C@H]1CCc2sc3ncnc(O[C@H]4CC[C@H](N5CCOCC5)CC4)c3c21
"binding, competition with immobilised ligand",,3 µM,,remaining binding,61%,COc1c(Cl)cccc1Nc1c(-c2ccncc2C#C[C@@]2(C)CCCN2C(=O)/C=C/CN(C)C)[nH]c2c1C(=O)NCC2
inhibitor,,"1 µM, NDR1",relative to: control,remaining activity,90%,COc1cc(Nc2nc(C)cc(-c3cnn4nc(OC)ccc34)n2)cc(C(F)(F)F)c1

# A few entries again:
assay,test system,conditions,how to read,measurement,value,SMILES
"binding, competition with immobilised ligand",,3 µM,,remaining binding,61%,COc1c(Cl)cccc1Nc1c(-c2ccncc2C#C[C@@]2(C)CCCN2C(=O)/C=C/CN(C)C)[nH]c2c1C(=O)NCC2
